# Earlier results, collected from citations in different studies.
# Protocols differ between the studies behind these lines. Values joined by “and” are separate records of one study, mostly repeats; a detail may differ. ± marks the error that the study gave. [ ]: non-standard residue; d: D form.
# Equilibrative nucleoside transporter 2: Equilibrative nucleoside transporter 2 (Homo sapiens, UniProt Q14542)
# Grin2b with GluN1a: Glutamate receptor ionotropic, NMDA 2B, with GluN1a (Grin2b, Rattus norvegicus, UniProt Q00960)
Molecule,target,test,test system,setting,Ki
O=[N+]([O-])c1ccc(CNc2nc(NCc3cccc(C(F)(F)F)c3)nc3[nH]cnc23)cc1,inositol hexakisphosphate kinase,,,,0.24 µM
CNC(=O)[C@@]12C[C@@H]1[C@@H](n1cnc3c(NCc4cccc(Cl)c4)nc(Cl)nc31)[C@H](O)[C@@H]2O,"Adenosine receptor A2a (ADORA2A, Homo sapiens, UniProt P29274)",binding,HEK293 expressing target,,2.3 ± 0.1 µM
O=c1c(-c2ccc(O)cc2)coc2cc(O)cc(O)c12,protein tyrosine kinases,"enzyme activity, inhibitor",,,2.6 to 18 µM
N#Cc1ccc(CSc2ncnc3c2ncn3C2CC(CO)C(O)C2O)cc1 (stereo not shown),adenosine kinase (Toxoplasma gondii),,,apparent Ki equals apparent Km,129 ± 25 µM
CCc1cc(Cl)c(OC)c(C(=O)NC[C@@H]2CCCN2CC)c1O,"D(4) dopamine receptor (DRD4, Homo sapiens, UniProt P21917)",,,,0.0464 ± 0.00694 µM
C[C@H]1O[C@@H](O[C@H]2[C@@H](O)C[C@H](O[C@H]3[C@@H](O)C[C@H](O[C@H]4CC[C@@]5(C)[C@H](CC[C@@H]6[C@@H]5C[C@@H](O)[C@]5(C)[C@@H](C7=CC(=O)OC7)CC[C@]65O)C4)O[C@@H]3C)O[C@@H]2C)C[C@H](O)[C@@H]1O,Na+/K+-ATPase human recombinant,"enzyme activity, inhibitor",,,0.25 µM
O=[N+]([O-])c1ccc(CSc2ncnc3c2ncn3C2CC(CO)C(O)C2O)cc1 (stereo not shown),adenosine kinase (Toxoplasma gondii),,,apparent Ki equals apparent Km,94 ± 15 µM
Cc1cn([C@H]2C[C@H](O)[C@@H](CO)O2)c(=O)[nH]c1=O,Equilibrative nucleoside transporter 2,,ENT1 knockout,,42 ± 8 µM
Nc1ncnc2c1ncn2[C@@H]1O[C@H](COP(=O)(O)OP(=O)(O)OP(=O)(O)O)[C@@H](O)[C@H]1O,calf intestinal alkaline phosphatase,"substrate inhibition, molybdenum blue",,,19 µM
CSC[C@H]1CN(Cc2c[nH]c3c(N)ncnc23)C[C@@H]1O,"Aminodeoxyfutalosine nucleosidase (Helicobacter pylori, UniProt Q9ZMY2)",inhibitor,,,8.6e-05 µM
bivalirudin,thrombin,inhibitor,,,~0.01 µM
O=C(O)[C@H]1NCCN(S(=O)(=O)c2ccc(-c3ccccc3)cc2)[C@H]1C(=O)O,Grin2b with GluN1a,"ion current, antagonist","Xenopus oocytes expressing GluN1/GluN2B, rat",,16.2 ± 4.1 µM
CC(C(=O)NCc1ccc(C(C)(C)C)cc1)c1ccc(NS(C)(=O)=O)c(F)c1 (stereo not shown),"Transient receptor potential cation channel subfamily V member 1 (Trpv1, Rattus norvegicus, UniProt O35433)",binding,CHO expressing rat TRPV1,together with: [3H]resiniferatoxin,0.0462 µM
O=C(O)c1cc([C@H]2CCN[C@@H]2C(=O)O)ccc1Br,"Glutamate receptor ionotropic, kainate 2 (Grik2, Rattus norvegicus, UniProt P42260)","binding, [3H]kainate displacement",,cloned homomeric receptor,> 100 µM
CC(=O)N[C@@H]1[C@@H](O)[C@H](O)[C@@H](CO)O[C@@H]1O,hexose transporter,,"Trypanosoma cruzi, epimastigote",together with: radiolabeled D-glucose uptake,156 µM
O=C(O)[C@H]1NCCN(C(=O)c2ccc3c(ccc4cc(Br)ccc43)c2)[C@H]1C(=O)O,Grin2b with GluN1a,"ion current, antagonist","Xenopus oocytes expressing GluN1/GluN2B, rat",,0.25 ± 0.02 µM
COc1ccccc1CN(C(C)=O)c1cnccc1Oc1ccccc1,"Translocator protein (TSPO, Homo sapiens, UniProt P30536)",,human brain tissue,"mixed-affinity binders, low-affinity site",0.313 µM and ~0.3 µM
CC1CN(c2ccc3ccccc3n2)CCN1CCCN1C(=O)c2ccccc2C1=O (stereo not shown),SERT (human),binding,human tissue,together with: [3H]5-HT,0.08 µM
C=CCN1CCC[C@H]1CNC(=O)c1cc(CCCF)cc(OC)c1OC,"dopamine D2 receptor, rat",binding,rat brain homogenate,together with: [3H]spiperone,5e-05 µM
"Ac-W[dPhe(4-I)]RW-NH2 (N-acetyl, D-4-iodo-Phe2, C-amide; dPhe(4-I) = N[C@H](Cc1ccc(I)cc1)C(=O)O)",mouse MC4R,"antagonist, Schild analysis",HEK293,,0.0148 µM
COc1ccc(S(=O)(=O)N2CCN(C(=O)c3ccc(-c4ccccc4)cc3)CC2C(=O)NO)cc1 (stereo not shown),ADAM17,inhibitor,,literature value,0.0006 ± 0.0003 µM
Cc1ccccc1CSc1ncnc2c1ncn2C1CC(CO)C(O)C1O (stereo not shown),adenosine kinase (Toxoplasma gondii),,,apparent Ki equals apparent Km,25 ± 3.3 µM
O=C(O)c1cc2c(C(F)(F)F)cc(-c3ccccc3)cc2n1O,lactate dehydrogenase A,"inhibitor, Lineweaver-Burk plot",,,8.9 µM
CS(=O)(=O)c1ccc(CSc2ncnc3c2ncn3C2CC(CO)C(O)C2O)cc1 (stereo not shown),adenosine kinase (Toxoplasma gondii),,,apparent Ki equals apparent Km,74 ± 7.8 µM
C[C@@H]1CCO[C@H]2Cn3cc(C(=O)NCc4ccc(F)cc4F)c(=O)c(O)c3C(=O)N12,"Multidrug and toxin extrusion protein 1 (SLC47A1, Homo sapiens, UniProt Q96FL8)",inhibitor,,geometric mean of reported,6.42 µM
CO[C@H]1/C=C/O[C@@]2(C)Oc3c(C)c(O)c4c(O)c(c(/C=N/N5CCN(C)CC5)c(O)c4c3C2=O)NC(=O)/C(C)=C\C=C\[C@H](C)[C@H](O)[C@@H](C)[C@@H](O)[C@@H](C)[C@H](OC(C)=O)[C@@H]1C,"Solute carrier organic anion transporter family member 1B3 (SLCO1B3, Homo sapiens, UniProt Q9NPD5)",,,,1.45 µM
OCC1CC(n2cnc3c(SCc4ccc(F)cc4)ncnc32)C(O)C1O (stereo not shown),adenosine kinase (Toxoplasma gondii),,,apparent Ki equals apparent Km,32 ± 8.3 µM
C=CC[C@@H]1/C=C(\C)C[C@H](C)C[C@H](OC)[C@H]2O[C@@](O)(C(=O)C(=O)N3CCCC[C@H]3C(=O)O[C@H](/C(C)=C/[C@@H]3CC[C@@H](O)[C@H](OC)C3)[C@H](C)[C@@H](O)CC1=O)[C@H](C)C[C@@H]2OC,FKBP,"rotamase activity, inhibitor",,,0.001 to 0.002 µM
NCCCNC(=O)[C@H]1O[C@@H](n2cnc3c(N)ncnc32)[C@H](O)[C@@H]1O,adenosine A3 receptor,binding,,,> 10 µM
O=C(O)[C@H]1NCCN(C(=O)c2ccc(-c3ccccc3)cc2)[C@H]1C(=O)O,"Glutamate receptor ionotropic, NMDA 2A, with GluN1a subunit (Grin2a, Rattus norvegicus, UniProt Q00959)","ion current, antagonist","Xenopus oocytes expressing GluN1/GluN2A, rat",,15.7 ± 0.4 µM
Nc1ncnc2c1ncn2[C@@H]1O[C@H](COS(=O)(=O)NC(=O)[C@@H](N)Cc2ccccc2)[C@@H](O)[C@H]1O,"grsA, holo form (Aneurinibacillus migulanus, UniProt P0C061)","enzyme activity, tight-binding inhibitor, hydroxamate-MesG coupled",,,0.0012 ± 0.00014 µM
CNc1ccc(-c2nc3ccc(O)cc3s2)cc1,amyloid beta fibrils,binding,in vitro generated fibrils,,0.0047 µM
O=C(NCCCCN1CCN(c2ccccc2OCCF)CC1)c1ccc(-c2ccsc2)cc1,sigma 2 receptor,,,,> 5 µM
O=c1ccn([C@@H]2O[C@H](CO)[C@@H](O)[C@H]2O)c(=O)[nH]1,Equilibrative nucleoside transporter 2,,ENT1 knockout,,180 ± 30 µM
O=C(O[C@@H]1Cc2c(O)cc(O)cc2O[C@@H]1c1cc(O)c(O)c(O)c1)c1cc(O)c(O)c(O)c1,intestinal UDP-glucuronosyltransferase,reversible inhibitor,,together with: raloxifene substrate,≤ 2 µM and ~2 µM
CCC1=C(C)c2cc3[nH]c(cc4[nH]c(cc5nc(cc1n2)C(C)=C5CC)c(C)c4CCC(=O)O)c(CCC(=O)O)c3C,TSPO,,,,0.578 µM
O=[N+]([O-])c1cccc(CSc2ncnc3c2ncn3C2CC(CO)C(O)C2O)c1 (stereo not shown),adenosine kinase (Toxoplasma gondii),,,apparent Ki equals apparent Km,27 ± 2.7 µM
O=C(O)[C@@H]1NCCN(C(=O)c2ccc3c(ccc4ccccc43)c2)[C@H]1C(=O)O,Grin2b with GluN1a,"ion current, antagonist","Xenopus oocytes expressing GluN1/GluN2B, rat",,9.1 ± 1 µM
COc1ccc(CSc2ncnc3c2ncn3C2CC(CO)C(O)C2O)cc1 (stereo not shown),adenosine kinase (Toxoplasma gondii),,,apparent Ki equals apparent Km,62 ± 4.7 µM
NC(=O)c1ccc[n+]([C@@H]2O[C@H](COP(=O)([O-])OP(=O)(O)OC[C@H]3O[C@@H](n4cnc5c(N)ncnc54)[C@H](O)[C@@H]3O)[C@@H](O)[C@H]2O)c1,"Alcohol dehydrogenase E chain (Equus caballus, UniProt P00327)","enzyme activity, coenzyme",,"pH 8.0, 25 °C, Kia coenzyme",27 µM
